Results collected from several papers.
Protocols differ between the studies behind these lines. ± gives the spread as reported.

COc1cc2[nH]c(C)c(-c3ccco3)c(=O)c2cc1Cl — logD (chromatographic; pH 7.4): 2.1
Clc1ccc(Nc2ncnc3ccc(-c4cccc(N5CCOCC5)c4)cc23)cc1 — logD (shake flask; 1-octanol/phosphate buffer; pH 7.4): > 4.6
O=C(O)c1cc(-c2ccc(-n3ccnn3)cc2)cc(-n2cc(-c3ccc(C(F)(F)F)cc3)nn2)c1 — logD (HPLC retention; pH 7.4): 0.04
COc1cc2[nH]c(C)c(-c3ccc(OC(F)(F)F)cc3)c(=O)c2cc1Cl — logD (chromatographic; pH 7.4): 3.4
Cc1cccc(NS(=O)(=O)c2cc(C(=O)Nc3ccccc3C(=O)N3CCOCC3)ccc2Cl)c1 — logD (octanol/buffer; pH 7.4): 2.92
COc1ccc(-c2c(C)[nH]c3cc(OC)c(Cl)cc3c2=O)cc1 — logD (chromatographic; pH 7.4): 2.4
CCOC(=O)N1C[C@@H](c2ccc(C(C)(C)C)cc2)N[C@@H](C(CC)CC)C1 — logD (shake-flask, 1-octanol/buffer; pH 7.4): > 4.7
COc1cc2[nH]c(C)c(-c3cccc4c3oc3ccccc34)c(=O)c2cc1Cl — logD (chromatographic; pH 7.4): 3.5
O=C(Nc1ccc(F)cc1)N1CCNCC1COc1ccc2c(c1)OCO2 (stereo not drawn) — logD (experimental partition; pH 7.4): 1.88 ± 0.01
CCOC(=O)N1C[C@@H](C2CCCCC2)N[C@@H](c2ccc(-c3ccccc3)cc2)C1 — logD (shake-flask, 1-octanol/buffer; pH 7.4): > 4.7
Clc1ccc(Nc2ncnc3ccc(-c4cccc(N5CCOCC5)c4)cc23)cc1Cl — logD (shake flask; 1-octanol/phosphate buffer; pH 7.4): > 4.2
CCCCOC(=O)/C=C/C(=O)NNC(=O)CCc1ccccc1C(=O)N[C@H](C)c1cccc2ccccc12 — logD: 4.3
CCN(c1ccc(C)cc1)c1ccc(NC(=O)CN(C)c2ccccc2N2CCCC2=O)cn1 — logD (shake-flask): 4.4
Clc1ccc([C@@H]2COC[C@H](c3ccc(-c4ccccn4)cc3)N2)cc1 — logD (shake-flask, 1-octanol/buffer; pH 7.4): > 4.4
FC(F)(F)CN1CC(n2cc(Oc3ccn4nc(Cl)cc4n3)cn2)C1 — logD (pH 7.4): 2.46
COc1cc2[nH]c(C)c(-c3cc(C(F)(F)F)cc(C(F)(F)F)c3)c(=O)c2cc1Cl — logD (chromatographic; pH 7.4): 4
O=C(O)c1cc(-c2ccc(-c3ccc(Cl)s3)cc2)c2ccc(-c3ccc(C(F)(F)F)cc3)cc2c1 — logD (HPLC retention; pH 7.4, chromatographic logD): 3.3
COc1cc2[nH]c(C)c(-c3ccc(OC)c(F)c3F)c(=O)c2cc1Cl — logD (chromatographic; pH 7.4): 2.7
CC[N+]1(C)CCN(c2ccc(C(=O)Nc3cccc(C)n3)cc2)CC1 — logD (pH 7.4): -0.7
COc1cc2[nH]c(C)c(-c3ccc4c(c3)OCCO4)c(=O)c2cc1Cl — logD (chromatographic; pH 7.4): 2.4
O=C(COc1ccc(C2CCC(=O)NC2=O)cc1)NCCCCCCN1CCc2c(c3ccccc3n2Cc2ccc(C(=O)NO)cc2)C1 (stereo not drawn) — logD (HPLC-based method; pH 7.4): 1.6
O=C(O)c1cccnc1Nc1cccc(C(F)(F)F)c1 — logD (miniaturised shake-flask; 1-octanol/water): 2.1
O=C(CSc1nnc(-c2ccc([N+](=O)[O-])cc2)n1-c1ccccc1)N1CCOCC1 — logD (octanol/buffer; pH 7.4): 1.87
Cc1cc(Nc2ccc(S(F)(F)(F)(F)F)cc2)n2ccnc2n1 — logD: 3.3
Cc1ccnc(C(=O)NC2CCCCC2)c1O — logD (miniaturised shake-flask; 1-octanol/water): 3.3
CCOC(=O)N1C[C@@H](C2CCCCC2)N[C@@H](c2cccc(OC)c2)C1 — logD (shake-flask, 1-octanol/buffer; pH 7.4): > 4.7
Cc1cc(C)c(S(=O)(=O)N(C)CC(=O)N2CCC(C(N)=O)CC2)c(C)c1 — logD (octanol/buffer; pH 7.4): 1.33
CCOC(=O)N1C[C@@H](c2ccc(C(F)(F)F)cc2)N[C@@H](c2cnc(-c3ccccc3)nc2)C1 — logD (shake-flask, 1-octanol/buffer; pH 7.4): > 4.7
O=C(O)c1c(O)c(-c2ccccc2)nc2ccccc12 — logD (miniaturised shake-flask; 1-octanol/water): 0.6
COC(=O)/C=C\C(=O)NNC(=O)CCc1ccccc1C(=O)N[C@H](C)c1cccc2ccccc12 — logD: 3
CCOC(=O)N1C[C@@H](c2cc(Cl)cc(Cl)c2)N[C@@H](c2nc3ccccc3n2C)C1 — logD (shake-flask, 1-octanol/buffer; pH 7.4): > 4.7
COc1ccc(NC(=O)CN2CCOCC2)c([N+](=O)[O-])c1 — logD (octanol/buffer; pH 7.4): 2.16
Cc1nn(C)cc1S(=O)(=O)NC(=O)c1ccc(-n2ccc(OCC(C)(C)C(F)(F)F)n2)nc1N1C[C@@H](C)CC1(C)C — logD (miniaturised shake-flask; 1-octanol/water): > 4.7
COc1ccc2nc(-c3cc(N(C)C)ccn3)c(N(C)c3ccc(F)cc3)n2c1 — logD (pH 7.4): 2.6
COC(=O)CNC(=O)c1nc(Cl)c2ccccc2c1O — logD (miniaturised shake-flask; 1-octanol/water): 2.4
COc1cccc(OC)c1CNC(=O)c1ccc2c(c1)C(=NNc1ccc(S(N)(=O)=O)cc1)C(=O)N2 — logD (octanol/buffer; 67 µM, pH 7.4): 3.21
Cc1ccc(Oc2ccc(NC(=O)COc3ccccc3N3CCCC3=O)cc2)cc1 — logD (shake-flask): 4.8
CS(=O)(=O)c1ccc(C(=O)N2CCCCC2)cc1 — logD (shake-flask; 1-octanol/water): 0.51
CN(c1ccc(F)cc1)c1c(-c2cccc(F)n2)nc2ccccn12 — logD (pH 7.4): 4
CC(C)(C)c1ccc([C@H]2COC[C@@H](c3ccc(Cl)cc3)N2)cc1 — logD (shake-flask, 1-octanol/buffer; pH 7.4): > 4.7
CN1C(C(=O)Nc2ccccn2)=C(O)c2sccc2S1(=O)=O — logD: -1.1
COC(=O)/C=C/C(=O)NNC(=O)CCc1ccccc1C(=O)N[C@H](C)c1cccc(-c2cn[nH]c2)c1 — logD: 1.5
CO[C@]1(C(=O)N[C@@H](C)c2ccc(-n3cc(F)cn3)nc2)CC[C@H](c2nc(C)cc(Nc3cc(C)[nH]n3)n2)CC1 — logD (pH 7.4): 3.82
COC(=O)/C=C/C(=O)NNC(=O)CCc1ccccc1C(=O)N[C@H](C)c1cccc(C2=CCOCC2)c1 — logD: 2.4
COc1cc2[nH]c(C)c(-c3ccc(Oc4ccccc4)cc3)c(=O)c2cc1Cl — logD (chromatographic; pH 7.4): 3.7
COc1ccccc1NC(=O)CSc1nnc(-c2ccc([N+](=O)[O-])cc2)n1-c1ccccc1 — logD (octanol/buffer; pH 7.4): 3.69
Oc1ccc(Cl)c2cccnc12 — logD (miniaturised shake-flask; 1-octanol/water): 2.8
O=C(Nc1cc(C2CCCCC2)[nH]n1)c1ccc(Br)cc1 — logD (octanol/buffer; 67 µM, pH 7.4): 5.09
N#Cc1ccc([C@@H]2COC[C@H](c3cc(Cl)cc(Cl)c3)N2)cc1 — logD (shake-flask, 1-octanol/buffer; pH 7.4): > 4.7
COc1cc(OC)c(NC(=O)CSc2nnc(-c3ccncc3)n2C)cc1Cl — logD (octanol/buffer; pH 7.4): 1.78
Cc1cc(Cl)cc2sc(N(CC3CCNCC3)C(=O)c3ccco3)nc12 — logD: 1.48

Repeated from above:
COc1cc(OC)c(NC(=O)CSc2nnc(-c3ccncc3)n2C)cc1Cl — logD (octanol/buffer; pH 7.4): 1.78
Clc1ccc(Nc2ncnc3ccc(-c4cccc(N5CCOCC5)c4)cc23)cc1 — logD (shake flask; 1-octanol/phosphate buffer; pH 7.4): > 4.6
COc1cc2[nH]c(C)c(-c3ccc(Oc4ccccc4)cc3)c(=O)c2cc1Cl — logD (chromatographic; pH 7.4): 3.7
O=C(O)c1cccnc1Nc1cccc(C(F)(F)F)c1 — logD (miniaturised shake-flask; 1-octanol/water): 2.1
COc1cc2[nH]c(C)c(-c3cccc4c3oc3ccccc34)c(=O)c2cc1Cl — logD (chromatographic; pH 7.4): 3.5
